# Measurements gathered from unrelated publications.
# Numbered parts are unrelated; each lists some results of a single study.
# Sequence of UniProt P59537 (whole entry, looked up): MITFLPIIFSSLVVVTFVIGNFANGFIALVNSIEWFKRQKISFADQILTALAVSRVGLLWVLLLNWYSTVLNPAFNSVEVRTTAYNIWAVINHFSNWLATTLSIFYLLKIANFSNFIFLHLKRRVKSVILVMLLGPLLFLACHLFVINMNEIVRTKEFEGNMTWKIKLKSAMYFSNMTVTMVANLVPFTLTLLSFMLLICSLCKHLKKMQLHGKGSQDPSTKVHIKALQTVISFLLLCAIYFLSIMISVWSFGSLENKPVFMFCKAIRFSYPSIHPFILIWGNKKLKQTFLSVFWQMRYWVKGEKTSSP

# Series 1
# Host: mice, PTZ-induced seizures
# Route: oral
# Dose: 20 mg/kg
# Time: 24 h after PTZ
Structure (SMILES),mortality [%]
O=C(O)COc1ccc(Br)cc1/C=N/NC(=O)c1ccccc1,40
O=C(O)COc1ccc(Br)cc1/C=N/NC(=O)c1ccc(Cl)cc1,10
O=C(O)COc1ccc(Br)cc1C=NNC(=O)Cc1ccccc1 (mixture of isomers),0
O=C(O)COc1ccccc1/C=N/NC(=O)CNc1ccc(Cl)cc1,20
O=C(O)COc1ccc(Br)cc1/C=N/NC(=O)CNc1ccccc1,40
Cc1ccc(NCC(=O)N/N=C/c2cc(Br)ccc2OCC(=O)O)cc1,50

# Series 2
# Target: C-X-C chemokine receptor type 4 (CXCR4, Homo sapiens, UniProt P61073)
# Sequence of UniProt P61073 (whole entry, looked up): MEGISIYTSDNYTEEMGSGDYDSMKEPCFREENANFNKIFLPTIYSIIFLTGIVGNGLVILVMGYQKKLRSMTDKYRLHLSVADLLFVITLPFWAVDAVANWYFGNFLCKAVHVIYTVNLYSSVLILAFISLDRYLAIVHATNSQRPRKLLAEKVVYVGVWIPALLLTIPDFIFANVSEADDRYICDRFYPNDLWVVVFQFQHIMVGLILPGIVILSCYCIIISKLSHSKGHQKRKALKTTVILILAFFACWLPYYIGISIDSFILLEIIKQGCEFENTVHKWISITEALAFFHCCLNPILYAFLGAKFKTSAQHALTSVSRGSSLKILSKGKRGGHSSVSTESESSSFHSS
# Read-out: ligand displacement
# Method: radioligand
SMILES,IC50 [nM]
CC(C)C[C@H](NC(=O)[C@H](CO)NC(=O)[C@@H](NC(=O)[C@@H]1CCCN1C(=O)[C@@H](N)CCCCN)C(C)C)C(=O)N[C@@H](CO)C(=O)N[C@@H](Cc1ccc(O)cc1)C(=O)N[C@@H](CCCNC(=N)N)C(=O)N[C@@H](CO)C(=O)NCCCC[C@H](NC(=O)[C@@H]1CSSC[C@H](NC(=O)[C@H](Cc2ccc3ccccc3c2)NC(=O)[C@H](CCCNC(=N)N)NC(=O)[C@@H](N)CCCNC(=N)N)C(=O)N[C@@H](Cc2ccc(O)cc2)C(=O)N[C@@H](CCCNC(=N)N)C(=O)N[C@@H](CCCCN)C(=O)N[C@H](CCCCN)C(=O)N2CCC[C@H]2C(=O)N[C@@H](Cc2ccc(O)cc2)C(=O)N[C@@H](CCCNC(=N)N)C(=O)N[C@@H](CCCNC(=N)N)C(=O)N1)C(=O)O,5.67
CC(C)C[C@H](NC(=O)[C@H](CO)NC(=O)[C@@H](NC(=O)[C@@H]1CCCN1C(=O)[C@@H](N)CCCCN)C(C)C)C(=O)N[C@@H](CO)C(=O)N[C@@H](Cc1ccc(O)cc1)C(=O)NCCCC[C@H](NC(=O)[C@@H]1CSSC[C@H](NC(=O)[C@H](Cc2ccc3ccccc3c2)NC(=O)[C@H](CCCNC(=N)N)NC(=O)[C@@H](N)CCCNC(=N)N)C(=O)N[C@@H](Cc2ccc(O)cc2)C(=O)N[C@@H](CCCNC(=N)N)C(=O)N[C@@H](CCCCN)C(=O)N[C@H](CCCCN)C(=O)N2CCC[C@H]2C(=O)N[C@@H](Cc2ccc(O)cc2)C(=O)N[C@@H](CCCNC(=N)N)C(=O)N[C@@H](CCCNC(=N)N)C(=O)N1)C(=O)O,38.6
CC(C)C[C@H](NC(=O)[C@H](CO)NC(=O)[C@@H](NC(=O)[C@@H]1CCCN1C(=O)[C@@H](N)CCCCN)C(C)C)C(=O)N[C@@H](CO)C(=O)N[C@@H](Cc1ccc(O)cc1)C(=O)N[C@@H](CCCNC(=N)N)C(=O)N[C@@H](CO)C(=O)NCCCC[C@H](NC(=O)[C@@H]1CSSC[C@H](NC(=O)[C@H](Cc2ccc3ccccc3c2)NC(=O)[C@H](CCCNC(=N)N)NC(=O)[C@@H](N)CCCNC(=N)N)C(=O)N[C@@H](Cc2ccc(O)cc2)C(=O)N[C@@H](CCCNC(=N)N)C(=O)N[C@@H](CCCCN)C(=O)N[C@H](CCCCN)C(=O)N2CCC[C@H]2C(=O)N[C@@H](Cc2ccc(O)cc2)C(=O)N[C@@H](CCCNC(=N)N)C(=O)N[C@@H](CCCNC(N)=O)C(=O)N1)C(=O)O,21.2
CC(C)C[C@H](NC(=O)[C@H](CO)NC(=O)[C@@H](NC(=O)[C@@H]1CCCN1C(=O)[C@@H](N)CCCCN)C(C)C)C(=O)N[C@@H](CO)C(=O)N[C@@H](Cc1ccc(O)cc1)C(=O)N[C@@H](CCCNC(=N)N)C(=O)N[C@@H](CO)C(=O)N1CCC[C@H]1C(=O)NCCCC[C@H](NC(=O)[C@@H]1CSSC[C@H](NC(=O)[C@H](Cc2ccc3ccccc3c2)NC(=O)[C@H](CCCNC(=N)N)NC(=O)[C@@H](N)CCCNC(=N)N)C(=O)N[C@@H](Cc2ccc(O)cc2)C(=O)N[C@@H](CCCNC(=N)N)C(=O)N[C@@H](CCCCN)C(=O)N[C@H](CCCCN)C(=O)N2CCC[C@H]2C(=O)N[C@@H](Cc2ccc(O)cc2)C(=O)N[C@@H](CCCNC(=N)N)C(=O)N[C@@H](CCCNC(=N)N)C(=O)N1)C(=O)O,9.57

# Further values, each from its own experiment
Structure (SMILES),target or system,read-out,action,method,time,quantity,value
CC[C@H](C)[C@@H]1NC(=O)[C@H](Cc2c[nH]c3ccccc23)NC(=O)[C@H](Cc2ccccc2)NC(=O)[C@H](Cc2ccccc2)NC(=O)[C@@H]2CCCN2C(=O)[C@H](CCSC)NC(=O)[C@H](CC(C)C)NC(=O)[C@H](CC[S+](C)[O-])NC1=O (stereo partly drawn),"TAS2R43 (Homo sapiens, UniProt P59537)",calcium signal,agonist,,,EC50,2920 nM
N=C(N)N[C@@H]1C[C@@H](C(=O)N[C@@H](Cc2ccc(O)cc2)C(N)=O)N(C(=O)CN(CCNC(=O)[C@H](CCCCNC(=O)c2cnccn2)NC(=O)[C@H](CCCCNC(=O)[C@H]2C[C@@H](N)CN2C(=O)CN(CCNC(=O)CN(CCN)C(=O)Cn2cnc3c(=O)[nH]c(N)nc32)C(=O)Cn2cnc3c(=O)[nH]c(N)nc32)NC(=O)[C@H]2C[C@@H](N)CN2C(=O)CN(CCNC(=O)CN(CCN)C(=O)Cn2cnc3c(=O)[nH]c(N)nc32)C(=O)Cn2cnc3c(=O)[nH]c(N)nc32)C(=O)Cn2cnc3c(=O)[nH]c(N)nc32)C1,HEK-293T,,,MTT,48 h after transfection,CC50,135000 nM

# Repeated from above (series 1):
Structure (SMILES),mortality [%]
O=C(O)COc1ccc(Br)cc1/C=N/NC(=O)c1ccc(Cl)cc1,10
O=C(O)COc1ccc(Br)cc1C=NNC(=O)Cc1ccccc1 (mixture of isomers),0
